Measurements pooled from the literature.
Compare with care: the assays were run in different laboratories.
Target: Glucagon-like peptide 1 receptor (GLP1R, Homo sapiens, UniProt P43220)
UniProt P43220, sequence (whole entry, looked up): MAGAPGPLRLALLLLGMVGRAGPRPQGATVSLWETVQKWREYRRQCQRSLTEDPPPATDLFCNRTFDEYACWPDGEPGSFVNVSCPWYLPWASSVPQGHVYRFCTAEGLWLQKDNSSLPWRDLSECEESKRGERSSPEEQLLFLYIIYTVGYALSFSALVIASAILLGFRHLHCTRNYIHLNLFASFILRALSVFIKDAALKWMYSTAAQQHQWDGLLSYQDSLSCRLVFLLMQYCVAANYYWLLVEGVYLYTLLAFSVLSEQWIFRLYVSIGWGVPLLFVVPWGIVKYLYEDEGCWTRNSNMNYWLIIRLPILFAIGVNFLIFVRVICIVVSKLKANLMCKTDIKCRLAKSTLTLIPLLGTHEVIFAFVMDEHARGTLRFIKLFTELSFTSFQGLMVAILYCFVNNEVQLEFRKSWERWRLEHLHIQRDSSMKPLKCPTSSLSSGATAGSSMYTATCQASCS
Mode: agonist

| SMILES | test | test system | EC50 |
| --- | --- | --- | --- |
| CC[C@H](C)[C@H](NC(=O)[C@H](Cc1ccccc1)NC(=O)[C@H](CCC(=O)O)NC(=O)[C@H](CCCNC(=N)N)NC(=O)[C@@H](NC(=O)[C@H](C)NC(=O)[C@H](CCC(=O)O)NC(=O)[C@H](CCC(=O)O)NC(=O)[C@H](CCC(=O)O)NC(=O)[C@H](CC(C)C)NC(=O)[C@H](Cc1ccc(O)cc1)NC(=O)[C@H](CCCCN)NC(=O)[C@H](CO)NC(=O)[C@H](CC(C)C)NC(=O)[C@H](CC(=O)O)NC(=O)[C@H](CO)NC(=O)[C@@H](NC(=O)[C@H](Cc1ccccc1)NC(=O)[C@@H](NC(=O)CNC(=O)[C@H](CCC(N)=O)NC(=O)[C@@H](CO)NC(=O)[C@@H](N)Cc1c[nH]cn1)[C@@H](C)O)[C@@H](C)O)C(C)C)C(=O)N[C@@H](C)C(=O)N[C@@H](Cc1c[nH]c2ccccc12)C(=O)N[C@@H](CC(C)C)C(=O)N[C@@H](CCCCN)C(=O)N[C@@H](CC(N)=O)C(=O)NCC(=O)NCC(=O)N1CCC[C@H]1C(=O)N[C@@H](CO)C(=O)N[C@@H](Cc1ccc(O)cc1)C(=O)N[C@@H](CO)C(=O)N[C@@H](CCSC)C(=O)N[C@@H](CCC(=O)O)C(=O)N[C@@H](Cc1c[nH]cn1)C(=O)N[C@@H](Cc1ccccc1)C(=O)N[C@@H](CCCNC(=N)N)C(=O)N[C@@H](Cc1c[nH]c2ccccc12)C(=O)NCC(=O)N[C@@H](CCCCN)C(=O)N1CCC[C@H]1C(=O)N[C@H](C(N)=O)C(C)C | cAMP, FRET |  | 0.275 nM |
| CC[C@H](C)[C@H](NC(=O)[C@H](Cc1ccccc1)NC(=O)[C@H](CCC(=O)O)NC(=O)[C@H](CCCCN)NC(=O)[C@H](C)NC(=O)[C@H](C)NC(=O)[C@H](CCC(N)=O)NC(=O)CNC(=O)[C@H](CCC(=O)O)NC(=O)[C@H](CC(C)C)NC(=O)[C@H](Cc1ccc(O)cc1)NC(=O)[C@H](CO)NC(=O)[C@H](CO)NC(=O)[C@@H](NC(=O)[C@H](CC(=O)O)NC(=O)[C@H](CO)NC(=O)[C@@H](NC(=O)[C@H](Cc1ccccc1)NC(=O)[C@@H](NC(=O)CNC(=O)[C@H](CCC(=O)O)NC(=O)[C@H](C)NC(=O)[C@H](Cc1c[nH]cn1)NCC(F)(F)C(F)(F)C(F)(F)F)[C@@H](C)O)[C@@H](C)O)C(C)C)C(=O)N[C@@H](C)C(=O)N[C@@H](Cc1c[nH]c2ccccc12)C(=O)N[C@@H](CC(C)C)C(=O)N[C@H](C(=O)N[C@@H](CCCCN)C(=O)NCC(=O)N[C@@H](CCCNC(=N)N)C(N)=O)C(C)C | reporter gene, luciferase |  | 0.001 nM |
| CC[C@H](C)[C@H](NC(=O)[C@H](Cc1ccccc1)NC(=O)[C@H](CCC(=O)O)NC(=O)[C@H](CCCCN)NC(=O)[C@H](C)NC(=O)[C@H](C)NC(=O)[C@H](CCC(N)=O)NC(=O)CNC(=O)[C@H](CCC(=O)O)NC(=O)[C@H](CC(C)C)NC(=O)[C@H](Cc1ccc(O)cc1)NC(=O)[C@H](CO)NC(=O)[C@H](CO)NC(=O)[C@@H](NC(=O)[C@H](CC(=O)O)NC(=O)[C@H](CO)NC(=O)[C@@H](NC(=O)[C@H](Cc1ccccc1)NC(=O)[C@@H](NC(=O)CNC(=O)[C@H](CCC(=O)O)NC(=O)C(C)(C)NC(=O)[C@@H](N)Cc1c[nH]cn1)[C@@H](C)O)[C@@H](C)O)C(C)C)C(=O)N[C@@H](C)C(=O)N[C@@H](Cc1c[nH]c2ccccc12)C(=O)N[C@@H](CC(C)C)C(=O)N[C@H](C(=O)N[C@@H](CCCCN)CN(CC(=O)N[C@@H](CCCNC(=N)N)C(=O)N[C@@H](CCCCN)CN(CC(N)=O)S(C)(=O)=O)S(C)(=O)=O)C(C)C | reporter gene, luciferase |  | 0.04 nM |
| CC[C@H](C)[C@H](NC(=O)[C@H](Cc1ccccc1)NC(=O)[C@H](CCC(=O)O)NC(=O)[C@H](CCCCN)NC(=O)[C@H](C)NC(=O)[C@H](C)NC(=O)[C@H](CCC(N)=O)NC(=O)CNC(=O)[C@H](CCC(=O)O)NC(=O)[C@H](CC(C)C)NC(=O)[C@H](Cc1ccc(O)cc1)NC(=O)[C@H]1CCC[C@@H]1NC(=O)[C@H](CO)NC(=O)C(C)(C)NC(=O)[C@H](CC(=O)O)NC(=O)[C@H](CO)NC(=O)[C@@H](NC(=O)[C@H](Cc1ccccc1)NC(=O)[C@@H](NC(=O)CNC(=O)[C@H](CCC(=O)O)NC(=O)C(C)(C)NC(=O)[C@@H](N)Cc1c[nH]cn1)[C@@H](C)O)[C@@H](C)O)C(=O)N[C@@H](C)C(=O)N[C@@H](Cc1c[nH]c2ccccc12)C(=O)N[C@@H](CC(C)C)C(=O)N[C@H](C(=O)N[C@@H](CCCCN)C(=O)NCC(=O)N[C@@H](CCCNC(=N)N)C(N)=O)C(C)C | cAMP, luciferase |  | 0.138 nM |
| COc1cc(C2C(NC(=O)c3ccc(NC(=O)OC(C)(C)C)cc3)(C(=O)O)C(c3ccc(OC(=O)c4cccs4)c(OC)c3)C2(NC(=O)c2ccc(NC(=O)OC(C)(C)C)cc2)C(=O)O)ccc1OC(=O)c1cccs1 (centres unmarked) | cAMP production |  | 16.6 nM |
| CC[C@H](C)[C@H](NC(=O)[C@H](Cc1ccccc1)NC(=O)[C@H](CCC(=O)O)NC(=O)[C@H](CCCCN)NC(=O)[C@H](C)NC(=O)[C@H](C)NC(=O)[C@H](CCC(N)=O)NC(=O)CNC(=O)[C@H](CCC(=O)O)NC(=O)[C@H](CC(C)C)NC(=O)[C@H](Cc1ccc(O)cc1)NC(=O)[C@H](CO)NC(=O)[C@H](CO)NC(=O)[C@@H](NC(=O)[C@H](CC(=O)O)NC(=O)[C@H](CO)NC(=O)[C@@H](NC(=O)[C@H](Cc1ccccc1)NC(=O)[C@@H](NC(=O)CNC(=O)[C@H](CCC(=O)O)NC(=O)[C@H](C)NC(=O)[C@H](Cc1c[nH]cn1)NC[C@H](N)Cc1ccccc1)[C@@H](C)O)[C@@H](C)O)C(C)C)C(=O)N[C@@H](C)C(=O)N[C@@H](Cc1c[nH]c2ccccc12)C(=O)N[C@@H](CC(C)C)C(=O)N[C@H](C(=O)N[C@@H](CCCCN)C(=O)NCC(=O)N[C@@H](CCCNC(=N)N)C(N)=O)C(C)C | reporter gene, luciferase |  | 0.01 nM |
| CC(C)C[C@H](NC(=O)[C@H](Cc1ccc(O)cc1)NC(=O)[C@H](CO)NC(=O)[C@H](CO)NC(=O)[C@@H](NC(=O)[C@H](CC(=O)O)NC(=O)[C@H](CO)NC(=O)[C@@H](NC(=O)[C@H](Cc1ccccc1)NC(=O)[C@@H](NC(=O)CNC(=O)[C@H](CCC(=O)O)NC(=O)[C@H](C)NC(=O)[C@@H](N)Cc1c[nH]cn1)[C@@H](C)O)[C@@H](C)O)C(C)C)C(=O)N[C@@H](CCC(=O)O)C(=O)NCCN(CC(=O)N[C@@H](C)C(=O)N[C@@H](C)CN(CC(=O)N[C@@H](CCC(=O)O)C(=O)N[C@@H](Cc1ccccc1)CN(CC(=O)N[C@@H](C)C(=O)N[C@@H](Cc1c[nH]c2ccccc12)CN(CC(=O)N[C@H](C(=O)N[C@@H](CCCCN)CN(CC(=O)N[C@@H](CCCNC(=N)N)C(=O)N[C@@H](CCCCN)CN(CC(N)=O)S(C)(=O)=O)S(C)(=O)=O)C(C)C)S(=O)(=O)CC(C)C)S(=O)(=O)CC(C)C)S(=O)(=O)CCN)S(=O)(=O)CCN | reporter gene, luciferase |  | > 1000 nM |
| CC[C@H](C)[C@H](NC(=O)[C@H](Cc1ccccc1)NC(=O)[C@H](CCC(=O)O)NC(=O)[C@H](CCCCN)NC(=O)[C@H](C)NC(=O)[C@H](C)NC(=O)[C@H](CCC(N)=O)NC(=O)CNC(=O)[C@H](CCC(=O)O)NC(=O)[C@H](CC(C)C)NC(=O)[C@H](Cc1ccc(O)cc1)NC(=O)C[C@@H](NC(=O)[C@H](CO)NC(=O)C(C)(C)NC(=O)[C@H](CC(=O)O)NC(=O)[C@H](CO)NC(=O)[C@@H](NC(=O)[C@H](Cc1ccccc1)NC(=O)[C@@H](NC(=O)CNC(=O)[C@H](CCC(=O)O)NC(=O)[C@H](C)NC(=O)[C@@H](N)Cc1c[nH]cn1)[C@@H](C)O)[C@@H](C)O)C(C)C)C(=O)N[C@@H](C)C(=O)N[C@@H](Cc1c[nH]c2ccccc12)C(=O)N[C@@H](CC(C)C)C(=O)N[C@H](C(=O)N[C@@H](CCCCN)C(=O)NCC(=O)N[C@@H](CCCNC(=N)N)C(N)=O)C(C)C | β-arrestin-1 recruitment, BRET | HEK293FT with GRK5 | 6.31 nM |
